Results of several laboratories.
Each line is one published result; not all experiments were run side by side. “And” joins repeats or separate records; there may be more than shown. ± marks the error that the study gave.
Organism: SARS-CoV-2

| SMILES | assay | system | setting | scale | measurement | result |
| --- | --- | --- | --- | --- | --- | --- |
| CCC(CC)COC(=O)[C@H](C)N[P@](=O)(OC[C@H]1O[C@@](C#N)(c2ccc3c(N)ncnn23)[C@H](O)[C@@H]1O)Oc1ccccc1 | viral replication | 293T-ACE2, USA-WA1/2020 | – | – | EC90 | 0.0347 µM |
| CN(C)CCOC(C)(c1ccccc1)c1ccccn1 (centres unmarked) | viral replication | Vero E6 | inactive set pIC50 4 | – | IC50 | > 10 µM |
| CN1CCC(=C2c3ccccc3Sc3ccccc32)CC1 | viral replication, high-content imaging screen | – | cell-based | – | EC50 | > 100 µM |
| CN(C)C(=N)NC(=N)N | viral replication | Huh-7 | – | – | IC50 | > 2 µM |
| COc1cccc(-c2ccc(CN3CCCC(c4nc5ccc(C)cc5c(=O)[nH]4)C3)cc2)c1 (centres unmarked) | cytopathic effect | USA_WA1/2020 | round 2, 5-point | – | efficacy | 99.4% |
| CC(C)(O)c1ccc2c(c1)C(=CCCN1CCC(O)(c3ccc(Cl)cc3)C(C)(C)C1)c1cccnc1CO2 (centres unmarked) | viral replication, inhibitor | Vero E6, USA-WA1/2020 | 24 h | – | EC90 | > 2.5 µM |
| Cc1nn(-c2ccc(Cl)cc2)c2c1C(c1ccc(Cl)cc1)C(C#N)=C(N)O2 (centres unmarked) | – | Vero C1008 | 10 µM | baseline: positive control | viral titre log reduction | 0.512 log10 |
| Cc1ccc2c(NC(C)c3ccccc3)nc(N3CCNCC3)nc2c1 (centres unmarked) | cytopathic effect, cell-based CPE | USA_WA1/2020 | round 2, 5-point dilution | – | maximal response | 92.5% |
| O=C(/C=C/c1ccc(O)c(O)c1/C=C/c1ccc(O)c(O)c1)O[C@H](Cc1ccc(O)c(O)c1)C(=O)O | viral replication | Vero E6 | 25 µM | baseline: mean of replicates | CPE inhibition | 0% |
| Cc1nn(-c2ccc(Cl)cc2)c2c1C(c1ccc(I)cc1)C(C#N)=C(N)O2 (centres unmarked) | – | Vero | 1 µM | – | viral titre | 978000 IU/mL |
| CNCC(O)c1ccc(OC(=O)C(C)(C)C)c(OC(=O)C(C)(C)C)c1 (centres unmarked) | viral replication | Huh-7 | – | – | IC50 | > 2 µM |
| Cc1ccc(NS(=O)(=O)c2cccc(C(=O)NC3CCN(c4ncnc5[nH]cnc45)CC3)c2)cc1 | – | A549-ACE2, Wuhan-Hu-1 | 0.01016 µM | baseline: untreated | relative infection | 102% |
| CCN(CC)Cc1ccc2cc(COC(=O)Nc3ccc(C(=O)NO)cc3)ccc2c1 | viral replication, GFP plate reader screen | – | cell-based | – | EC50 | 10.5 µM |
| COc1ccccc1-c1ccc(CN2CCCC(c3nc4ccc(C)cc4c(=O)[nH]3)C2)cc1 (centres unmarked) | cytopathic effect, cell-based CPE | USA_WA1/2020 | round 1, 5-point dilution | – | AC50 | 11.2 µM |
| CC1CCN(CCCC(=O)c2ccc(F)cc2)CC1 | viral replication | Vero E6 | inactive set pIC50 4 | – | IC50 | > 10 µM |
| Cc1cccc(C)c1NC(=O)CN1CCN(CCCC(c2ccc(F)cc2)c2ccc(F)cc2)CC1 | viral replication, GFP plate reader screen | – | cell-based | – | EC50 | 9.55 µM |
| CC(Nc1nc(N2CCN(C)CC2)nc2ccccc12)c1ccccc1 (centres unmarked) | cytopathic effect, cell-based CPE | USA_WA1/2020 | round 2, 5-point dilution | – | AC50 | 12.6 µM |
| Oc1cc2c(cc1O)[C@H]1c3ccccc3CN[C@@H]1CC2 (racemic) | viral replication, high-content imaging screen | – | cell-based | – | EC50 | > 100 µM |
| Cc1cccc(/C=N/Nc2cc(N3CCOCC3)nc(OCCc3ccccn3)n2)c1 | viral replication | Huh-7-ACE2, USA-WA1/2020 | – | – | EC90 | 0.56 µM |
| CC(=O)O[C@H]1CC[C@@]2(C)C(=CC[C@@H]3[C@@H]2CC[C@]2(C)C(c4cccnc4)=CC[C@@H]32)C1 | viral replication, high-content imaging screen | – | cell-based | – | EC50 | > 25.1 µM |
| CC(C)(C)[C@H](NC(=O)C(F)(F)F)C(=O)N1C[C@H]2[C@@H]([C@H]1C(=O)N[C@H](C#N)C[C@@H]1CCNC1=O)C2(C)C | viral replication | Vero E6 | 0.156 µM | – | inhibition | 2.72% and 0.5% and 1.1% |
| Oc1ccccc1-c1nc(-c2cccs2)c(-c2cccs2)[nH]1 | cytopathic effect | USA_WA1/2020 | retest, 8-point, duplicates | – | efficacy | 15.4% |

| SMILES | assay | system | setting | scale | measurement | result |
| --- | --- | --- | --- | --- | --- | --- |
| CC[C@@H]1C(=O)N(C)c2cnc(Nc3ccc(C(=O)N[C@H]4CC[C@H](N5CCN(CC6CC6)CC5)CC4)cc3OC)nc2N1C(C)C | viral replication, GFP plate reader screen | – | cell-based | – | EC50 | > 50.1 µM |
| N#C[C@@]1(n2ccc(N)nc2=O)O[C@H](CO)[C@@H](O)[C@H]1O | viral replication, qRT-PCR of viral RNA | Vero, Washington | – | – | EC90 | 4.6 ± 0.2 µM |
| NC(=O)c1ncn([C@@H]2O[C@H](CO)[C@@H](O)[C@H]2O)n1 | – | – | concentration not given, Paris laboratory | – | viral replication inhibition | inactive |
| CCOc1ccccc1CNCc1cccn1-c1nnc(N2CCN(c3ccccc3)CC2)s1 | cytopathic effect | USA_WA1/2020 | round 1, 5-point | – | maximum response | 40.2% |
| Cc1nn(-c2ccc(Cl)cc2)c2c1C(c1ccc(Br)cc1)C(C#N)=C(N)O2 (centres unmarked) | viral replication | Vero | 1 µM | – | viral reduction | 0.776% |
| CCCc1nn(C)c2c(=O)[nH]c(-c3cc(S(=O)(=O)N4CCN(C)CC4)ccc3OCC)nc12 | viral replication | Huh-7 | – | – | IC50 | > 2 µM |
| Cc1ccccc1NC(=N)Nc1ccccc1C | viral replication | A549 expressing ACE2 | inactive set pIC50 4 | – | IC50 | > 10 µM |
| CC(C)(C)c1ccc(CN2CCN(C(c3ccccc3)c3ccc(Cl)cc3)CC2)cc1 (centres unmarked) | viral replication, GFP plate reader screen | – | cell-based | – | EC50 | > 100 µM |
| CN(C)CC[C@@H](c1ccc(Cl)cc1)c1ccccn1 | viral replication | Vero E6 | inactive set pIC50 4 | – | IC50 | > 10 µM |
| Cc1noc2c(NC3CCOCC3)cc(-c3cccc(C(F)(F)F)c3)nc12 | cytopathic effect | USA_WA1/2020 | round 1, 5-point | – | efficacy | 41.3% |
| CN(C)CCCN1c2ccccc2Sc2ccccc21 | viral replication, GFP plate reader screen | – | cell-based | – | EC50 | 16.2 µM |
| O=C(O[C@@H]1Cc2c(O)cc(O)cc2O[C@@H]1c1cc(O)c(O)c(O)c1)c1cc(O)c(O)c(O)c1 | viral cytopathic effect | Vero E6 | 1.562 µM | – | mean inhibition | 0% |
| CCCCCCCCCCCCCCCC(=O)N[C@H]1C[C@@H](O)[C@@H](O)NC(=O)[C@@H]2[C@@H](O)[C@@H](C)CN2C(=O)[C@H]([C@@H](C)O)NC(=O)[C@H]([C@H](O)[C@@H](O)c2ccc(O)cc2)NC(=O)[C@@H]2C[C@@H](O)CN2C(=O)[C@H]([C@@H](C)O)NC1=O | – | Vero | – | baseline: CC50 over IC50 | selectivity index | 47 |
| COc1ccc(C[C@@H]2c3cc(Oc4cc(C[C@@H]5c6cc(O)c(OC)cc6CCN5C)ccc4O)c(OC)cc3CCN2C)cc1 | viral cytopathic effect | Vero E6 | 1.562 µM | – | mean inhibition | 0% |
| CO[C@H]1C[C@@H]2CC[C@@H](C)[C@@](O)(O2)C(=O)C(=O)N2CCCC[C@H]2C(=O)O[C@H]([C@H](C)C[C@@H]2CC[C@@H](O)[C@H](OC)C2)CC(=O)[C@H](C)/C=C(\C)[C@@H](O)[C@@H](OC)C(=O)[C@H](C)C[C@H](C)/C=C/C=C/C=C/1C | – | – | concentration not given, Paris laboratory | – | viral replication inhibition | inactive |
| CC(C)=CCc1c(O)ccc(C(=O)/C=C/c2ccc(O)cc2)c1O | viral replication | Vero E6 | 100 µM | – | CPE inhibition | 100% |
| COc1cc2c(cc1OCC1CC1)NC(=O)C21CCN(c2cc(NC3CC3)ncn2)CC1 | cytopathic effect | USA_WA1/2020 | retest, 8-point, duplicates | – | efficacy | 73% |
| Cn1cnc(Cn2c(=O)[nH]/c(=N\c3cc4cn(C)nc4cc3Cl)n(Cc3cc(F)c(F)cc3F)c2=O)n1 | viral replication | Omicron BA.1 strain | 48 h | – | EC90 | 0.16 ± 0.057 µM |
| CCNC(=O)c1cc2c(-c3cc(C(C)(C)O)ccc3Oc3c(C)cc(F)cc3C)cn(C)c(=O)c2[nH]1 | – | Vero E6 | concentration not given, NYC laboratory | – | viral replication inhibition | inactive |
| NCC(=O)CCC(=O)O | viral replication | Huh-7 | – | – | IC50 | > 2 µM |
| CCCC(CCC)C(=O)O | – | – | concentration not given, Paris laboratory | – | viral replication inhibition | inactive |
| Cc1nn(-c2ccc(Cl)cc2)c2c1C(c1ccc(Cl)c(Cl)c1)C(C#N)=C(N)O2 (centres unmarked) | RT-qPCR, measured: viral RNA | Vero | 10 µM | higher means less virus | Ct value | 24.8 cycles |
